Measured values from different studies.
Parts stem from different laboratories: compare values within a part only. Changes are numbered by the printed parent chain.

Set 1 — target: FOSL2, bZIP domain (human); method: DHFR protein complementation; medium: yeast; reference: wild-type JUN-FOS pair; reading: higher = stronger binding
Setting: single substitutions, most at no-binding floor
Starting sequence: JUN, bZIP domain (human); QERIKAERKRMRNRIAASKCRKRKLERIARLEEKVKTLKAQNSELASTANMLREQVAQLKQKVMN; partner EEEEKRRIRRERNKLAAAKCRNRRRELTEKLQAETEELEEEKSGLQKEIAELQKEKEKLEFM
With `E32G` the binding fitness was -0.135 natural log.
The binding fitness of `N42A` is reported as -0.251 natural log.
`T37D` has a binding fitness of 0.0568 natural log.
`A57P` has a binding fitness of -1.34 natural log.
With `T48A` the binding fitness was -0.000793 natural log.
`V35A` gave a binding fitness of -0.138 natural log.
The binding fitness of `Q55H` is reported as 0.0154 natural log.
For `A40Y`, the binding fitness was -0.258 natural log.
`E33N` has a binding fitness of -0.091 natural log.
`E33I` gave a binding fitness of -0.161 natural log.
`V56G` has a binding fitness of -1.21 natural log.
For `V35C`, the binding fitness was -0.149 natural log.
`A40E` has a binding fitness of 0.103 natural log.
`L38W` gave a binding fitness of -1.09 natural log.
For `Q41E`, the binding fitness was 0.0986 natural log.
With `V56W` the binding fitness was -1.31 natural log.
For `R30G`, the binding fitness was 0.137 natural log.
`E32R` has a binding fitness of 0.136 natural log.

Set 2 — method: universal PBM; form: double-stranded DNA, one strand shown; medium: in vitro; tested at: not given; reading: higher = stronger binding
Target: Sal-like protein 4, full length isoform B (SALL4, Homo sapiens, UniProt Q9UJQ4-2, residues 1-616)
Setting: 8-mer, flanks averaged, mean of replicates
`CTAGTCCC` gave an E-score of -0.167.
`ACGAGTTC` has an E-score of -0.0241.
The E-score of `CTAGCCAG` is reported as -0.126.
For `GCCGCCGC`, the E-score was -0.387.
The E-score of `GACCCCTA` is reported as -0.151.
`ATTTAAAA` gave an E-score of 0.301.
The E-score of `AGTGAACG` is reported as 0.0688.
`CAAACCGC` has an E-score of -0.217.
The E-score of `ACTGAGAT` is reported as -0.00187.
The E-score of `TCCTGGCA` is reported as -0.0669.
For `AACATGAA`, the E-score was 0.227.
`TGACTGCA` gave an E-score of -0.026.
`AAACAGCG` gave an E-score of 0.0555.
For `CGCATACA`, the E-score was 0.133.
With `ATATCGGG` the E-score was 0.0845.
`CTGCCAAA` has an E-score of -0.038.
With `CTCTCAAA` the E-score was 0.0913.
The E-score of `CTGTAATC` is reported as 0.111.
For `GAAGTGAC`, the E-score was -0.0415.
With `ACAACATA` the E-score was 0.298.
For `ACCATACC`, the E-score was -0.0698.
The E-score of `AATGGTGG` is reported as -0.0512.

Set 3 — method: RNAcompete; form: RNA; medium: in vitro; tested at: 20 nM; setting: 7-mer, probes averaged, single round; reference: mean of 7-mers; reading: higher = stronger binding
Target: PABPC1L2, full length, GST fusion (mouse, UniProt A0ABA7IW68)
Target sequence (chain): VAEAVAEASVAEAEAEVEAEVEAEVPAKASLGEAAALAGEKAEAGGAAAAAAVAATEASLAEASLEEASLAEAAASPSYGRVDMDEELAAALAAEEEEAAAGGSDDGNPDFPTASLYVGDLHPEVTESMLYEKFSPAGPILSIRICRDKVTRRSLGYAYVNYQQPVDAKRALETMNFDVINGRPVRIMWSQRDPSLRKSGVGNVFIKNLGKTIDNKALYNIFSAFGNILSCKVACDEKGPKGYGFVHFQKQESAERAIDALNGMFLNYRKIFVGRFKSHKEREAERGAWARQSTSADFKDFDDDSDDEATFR
`CUCGGAU` has a 7-mer Z-score of -0.202.
`CCCCACA` gave a 7-mer Z-score of -0.429.
`AUGGAUG` gave a 7-mer Z-score of 0.0859.
The 7-mer Z-score of `GGCACAC` is reported as 0.00436.
For `CCAAAUA`, the 7-mer Z-score was 0.514.
`GGUACUC` gave a 7-mer Z-score of -0.13.
With `GGCGAAA` the 7-mer Z-score was 1.21.
With `UCCACGU` the 7-mer Z-score was -0.383.
With `AAGGCGU` the 7-mer Z-score was 0.108.
For `CGCUGGU`, the 7-mer Z-score was -0.0808.
`GUUUCUU` gave a 7-mer Z-score of -0.418.
For `GUGUAAU`, the 7-mer Z-score was -0.124.
The 7-mer Z-score of `ACUAACC` is reported as -0.0881.
For `CGUAAGG`, the 7-mer Z-score was -0.202.
`CACGGCA` gave a 7-mer Z-score of 0.108.
For `UGUUAAU`, the 7-mer Z-score was -0.237.
With `GUUAGCU` the 7-mer Z-score was -0.19.
For `CCACCCG`, the 7-mer Z-score was -0.217.
`CAGCUCA` has a 7-mer Z-score of 0.00254.

Set 4 — method: protein-binding microarray; form: double-stranded DNA, one strand shown; medium: in vitro; tested at: 2200 nM top; setting: 60-bp whole probe; with: salmon DNA 0.4 mg/ml; reference: random background probes; reading: higher = stronger binding; shared flanks, not repeated: GCCTAGCAC … GTCTTGATTCGCTTGACGCTGCTG
Target: Interferon regulatory factor 7, full length, phosphomimetic (IRF7, Homo sapiens, UniProt Q92985, residues 1-503, S471D/S472D/S475D/S476D/S477D/S483D/S484D/S487D)
Sequence of UniProt Q92985 (whole entry, unmodified, looked up): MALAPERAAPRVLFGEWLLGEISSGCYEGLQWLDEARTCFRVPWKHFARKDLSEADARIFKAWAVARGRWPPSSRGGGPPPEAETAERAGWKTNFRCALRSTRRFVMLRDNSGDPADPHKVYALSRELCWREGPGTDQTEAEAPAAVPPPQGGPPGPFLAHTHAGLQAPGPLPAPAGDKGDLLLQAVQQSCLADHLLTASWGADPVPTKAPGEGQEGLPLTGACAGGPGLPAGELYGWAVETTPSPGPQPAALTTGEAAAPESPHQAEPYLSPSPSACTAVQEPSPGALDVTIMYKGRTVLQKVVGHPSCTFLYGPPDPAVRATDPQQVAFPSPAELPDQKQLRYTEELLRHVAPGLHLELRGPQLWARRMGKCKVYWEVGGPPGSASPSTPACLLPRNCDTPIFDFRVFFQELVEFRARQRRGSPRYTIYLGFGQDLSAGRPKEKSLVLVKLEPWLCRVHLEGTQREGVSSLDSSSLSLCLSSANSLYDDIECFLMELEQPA
`TTAGAACTGAGTTTCAATTAGTGCTAG`: “fitted relative affinity” -0.102 z-score.
For `TTTGCTTTCTTTATGTACTCGTGCTAG`, “fitted relative affinity” read 3 z-score.
Under “fitted relative affinity”, `TTCGGTTTCGGGTATCGGTTAGTGCTA` is recorded as 8.4 z-score.
`GACGGTTTCGATATCGGGACGTGCTAG` — result for “fitted relative affinity”: 7.07 z-score.
`GACGATATCGGTACTGGAGACGTGCTA`: “fitted relative affinity” 0.0025 z-score.
Under “fitted relative affinity”, `TTAGAACTGACTTTCGATTAGTGCTAG` is recorded as 4.77 z-score.
`TTAGGACTCGGGTATCGGTTAGTGCTA` — result for “fitted relative affinity”: 0.508 z-score.
`TCAATTTTTGCTTACGAACTGTGCTAG`: “fitted relative affinity” 1 z-score.
`TTAGGTATCCTTCTCCTATAGTGCTAG` — result for “fitted relative affinity”: 1.08 z-score.
`TTAGATCTCCTTATCCTTTAGTGCTAG`: “fitted relative affinity” 1.11 z-score.
`TCATTTCTAAATTCCCTACTGTGCTAG`: “fitted relative affinity” 1.92 z-score.
Under “fitted relative affinity”, `GACGGTATCGGGACTTGGGACGTGCTA` is recorded as -0.351 z-score.
`GACGAACTGGGGTTTCAAGACGTGCTA` — result for “fitted relative affinity”: 0.00521 z-score.
`GGGCATTTGGTTAGCGTATAGTGCTAG` — result for “fitted relative affinity”: -0.369 z-score.
`GACGAACTGAGTAACGAGACGTGCTAG`: “fitted relative affinity” -0.198 z-score.
For `GTAGATTTCAGTCTCGATTAGTGCTAG`, “fitted relative affinity” read 0.847 z-score.
Under “fitted relative affinity”, `ATAGGTTTCGGGTTTCGGTTAGTGCTA` is recorded as 11.2 z-score.
`TTGGGTTTCCTACTGCTTTAGTGCTAG` — result for “fitted relative affinity”: 1.41 z-score.
`TTAGATCTCAGTCTCGAATAGTGCTAG`: “fitted relative affinity” 0.136 z-score.
For `TTGGATTTCAGTATCGATTAGTGCTAG`, “fitted relative affinity” read 1.25 z-score.
Under “fitted relative affinity”, `TTATGACTGCTTTTCCTTTAGTGCTAG` is recorded as 2.11 z-score.
For `TCAACTTTCCATTTCTGACTGTGCTAG`, “fitted relative affinity” read 6.8 z-score.
`TTAGATTTCCGTTTCGATTAGTGCTAG`: “fitted relative affinity” 5.67 z-score.
`AATGACTCTATGAAGTAGTTGTGCTAG` — result for “fitted relative affinity”: -0.156 z-score.
`TCATCTCTCCATGTGTTACTGTGCTAG` — result for “fitted relative affinity”: 2.22 z-score.

Set 5 — target: CCND3, cyclin fold, Cln2 fusion (human); method: yeast growth competition, sequencing; medium: yeast; setting: weak parent motif; reference: not given; reading: higher = stronger binding
Starting sequence: GMNC docking peptide (human); KNAKRNLSSEFAN; partner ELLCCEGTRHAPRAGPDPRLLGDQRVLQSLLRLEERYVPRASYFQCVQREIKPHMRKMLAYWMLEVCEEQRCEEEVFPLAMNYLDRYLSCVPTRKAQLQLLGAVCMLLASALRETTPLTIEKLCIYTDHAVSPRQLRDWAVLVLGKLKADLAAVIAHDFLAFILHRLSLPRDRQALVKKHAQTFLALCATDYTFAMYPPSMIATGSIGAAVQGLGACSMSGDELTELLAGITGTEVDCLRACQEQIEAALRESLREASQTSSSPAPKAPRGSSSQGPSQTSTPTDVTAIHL
`S9M`: “normalised enrichment score” 0.239.
`S9F`: “normalised enrichment score” 0.2.
For `N2L`, “normalised enrichment score” read 0.165.
`R5Q` — result for “normalised enrichment score”: 0.344.
For `S9P`, “normalised enrichment score” read 0.248.
Under “normalised enrichment score”, `A3P` is recorded as -0.692.
For `E10S`, “normalised enrichment score” read 0.108.
`F11W` — result for “normalised enrichment score”: 0.0672.
`R5Y`: “normalised enrichment score” 0.146.
Under “normalised enrichment score”, `S8P` is recorded as 0.645.
`K4M` — result for “normalised enrichment score”: 0.204.
`R5S`: “normalised enrichment score” 0.408.
`N6G` — result for “normalised enrichment score”: 0.627.
`E10N` — result for “normalised enrichment score”: 0.0229.
For `S8H`, “normalised enrichment score” read 0.284.
For `F11S`, “normalised enrichment score” read 0.0861.
`L7A` — result for “normalised enrichment score”: 0.393.
Under “normalised enrichment score”, `N2M` is recorded as 0.267.
Under “normalised enrichment score”, `F11N` is recorded as -0.207.
`R5E` — result for “normalised enrichment score”: 0.581.
Under “normalised enrichment score”, `S9E` is recorded as 0.14.
`L7T`: “normalised enrichment score” 0.12.
For `A12N`, “normalised enrichment score” read 0.0211.
`N6S` — result for “normalised enrichment score”: 0.142.
`A12K` — result for “normalised enrichment score”: 0.427.

Set 6 — method: DHFR PCA, deep sequencing; medium: yeast; with: (+)-ABA 0 µM; reference: wild-type fitted maximum; reading: higher = stronger binding
Target: ABI1, truncated, D143A, DHFR fusion (Arabidopsis thaliana)
Setting: methotrexate growth selection, single substitutions
Starting sequence: PYL1, truncated, DHFR fusion (Arabidopsis thaliana); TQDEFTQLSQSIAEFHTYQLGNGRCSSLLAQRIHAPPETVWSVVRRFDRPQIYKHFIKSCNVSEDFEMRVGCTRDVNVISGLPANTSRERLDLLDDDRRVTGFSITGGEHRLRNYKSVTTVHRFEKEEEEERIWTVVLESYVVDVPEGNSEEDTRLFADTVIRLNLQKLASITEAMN
Under “relative binding score”, `V100L` is recorded as 0.822%.
Under “relative binding score”, `I12Q` is recorded as 3.68%.
Under “relative binding score”, `P36V` is recorded as -0.681%.
`R132K` — result for “relative binding score”: 44.3%.
Under “relative binding score”, `L93N` is recorded as 8.93%.
`V76E`: “relative binding score” 0.558%.
`L166P`: “relative binding score” 11.7%.
For `H16C`, “relative binding score” read -6.79%.
`S150E` — result for “relative binding score”: 10.7%.
`E67W`: “relative binding score” 1.59%.
`E67F` — result for “relative binding score”: -2.61%.
For `N114T`, “relative binding score” read 1.24%.
Under “relative binding score”, `L29F` is recorded as 0.851%.
Under “relative binding score”, `R74Y` is recorded as -1.75%.
`S87G` — result for “relative binding score”: 0.698%.
Under “relative binding score”, `E174G` is recorded as -3.25%.
`R32L` — result for “relative binding score”: 28.2%.
Under “relative binding score”, `V136E` is recorded as -20.9%.

Some of these lines once more (set 2):
The E-score of `TCCTGGCA` is reported as -0.0669.
For `AACATGAA`, the E-score was 0.227.
`TGACTGCA` gave an E-score of -0.026.
`AAACAGCG` gave an E-score of 0.0555.
For `CGCATACA`, the E-score was 0.133.
With `ATATCGGG` the E-score was 0.0845.
`CTGCCAAA` has an E-score of -0.038.
With `CTCTCAAA` the E-score was 0.0913.
The E-score of `CTGTAATC` is reported as 0.111.
For `GAAGTGAC`, the E-score was -0.0415.
